Results from different studies.
Compare with care: the assays were run in different laboratories.
lysine riboswitch RNA: lysine riboswitch RNA, 2-aminopurine at 17 (Bacillus subtilis)
lasR: Transcriptional activator protein LasR (lasR, Pseudomonas aeruginosa, UniProt P25084)
Sequence of UniProt P25084 (whole entry, looked up): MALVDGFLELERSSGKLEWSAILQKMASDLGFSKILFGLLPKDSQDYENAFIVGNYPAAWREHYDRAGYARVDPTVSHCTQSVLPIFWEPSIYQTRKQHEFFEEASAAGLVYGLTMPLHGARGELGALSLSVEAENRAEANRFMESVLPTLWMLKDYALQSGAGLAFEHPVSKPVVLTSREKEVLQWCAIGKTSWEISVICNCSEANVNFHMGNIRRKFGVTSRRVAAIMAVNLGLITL
T1: lysine riboswitch RNA, 2-aminopurine at 17 (Bacillus subtilis); chain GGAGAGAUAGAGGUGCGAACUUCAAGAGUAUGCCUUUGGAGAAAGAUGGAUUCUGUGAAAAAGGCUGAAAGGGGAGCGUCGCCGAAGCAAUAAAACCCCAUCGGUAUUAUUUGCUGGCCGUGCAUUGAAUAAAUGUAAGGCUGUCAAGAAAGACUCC; chain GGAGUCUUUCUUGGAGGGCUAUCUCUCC
T2: riboswitch RNA (Mesoplasma florum); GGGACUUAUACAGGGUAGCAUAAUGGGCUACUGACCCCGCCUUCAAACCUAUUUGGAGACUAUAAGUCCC
T3: riboswitch RNA, extra G-C pair, UUCG loop; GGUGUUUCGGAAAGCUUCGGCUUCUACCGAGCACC
T4: aptamer DNA C14T; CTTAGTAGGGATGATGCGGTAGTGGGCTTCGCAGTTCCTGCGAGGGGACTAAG
T5: aptamer DNA aminoglycoside aptamer; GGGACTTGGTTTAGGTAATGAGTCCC
T6: riboswitch RNA SAM-I metF-H2 A87G/U88C (Thermoanaerobacter tengcongensis); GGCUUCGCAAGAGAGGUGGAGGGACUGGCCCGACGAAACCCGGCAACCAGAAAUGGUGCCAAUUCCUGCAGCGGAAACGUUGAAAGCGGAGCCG
T7: aptamer DNA vancomycin aptamer variant; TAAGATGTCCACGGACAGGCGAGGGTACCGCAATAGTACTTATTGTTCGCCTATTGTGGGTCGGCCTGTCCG
T8: riboswitch RNA U39A (Bacillus); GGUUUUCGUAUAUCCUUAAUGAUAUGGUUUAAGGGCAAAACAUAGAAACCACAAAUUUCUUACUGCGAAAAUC

SMILES = NCCCC[C@H](N)C(=O)NCC(=O)NCC(=O)O; target or system = T1, lysine riboswitch RNA, 2-aminopurine at 17 (Bacillus subtilis); test = 2-aminopurine fluorescence titration; setting = pH 8.0; quantity = binding; value = no binding
SMILES = N[C@@H](C[C@@H](O)C(=O)O)C(=O)O; test = binding, MIDAS equilibrium dialysis LC-MS; test system = A2AR-BRIL thermostabilized; setting = concentration not given; how to read = reference: no-protein control; quantity = log2 fold change; value = 0.0105
SMILES = COc1cccc(C(=O)C#Cc2ccc(F)c(F)c2)c1; target or system = lasR; test = receptor binding; setting = concentration not given, 1.5 h, together with: OdDHL at 1:1 ratio; how to read = reference: control; quantity = binding; value = 71%
SMILES = N[C@@H](Cc1c[nH]cn1)C(=O)O; target or system = T2, riboswitch RNA (Mesoplasma florum); test = NMR; quantity = binding; value = no binding
SMILES = COc1cc(C#CC(=O)c2ccccc2)ccc1O; target or system = lasR; test = receptor binding; setting = concentration not given, 1.5 h, together with: OdDHL at 1:1 ratio; how to read = reference: control; quantity = binding; value = 54%
SMILES = NC[C@H]1O[C@H](O[C@H]2[C@H](O)[C@@H](O[C@H]3O[C@H](CO)[C@@H](O)[C@H](N)[C@H]3O)[C@H](N)C[C@@H]2N)[C@H](O)[C@@H](O)[C@@H]1O; target or system = T3, riboswitch RNA, extra G-C pair, UUCG loop; test = 1H,15N-HSQC NMR; setting = pH 6.2, 283 K; quantity = binding; value = binds
SMILES = N[C@@H](Cc1c[nH]cn1)C(=O)O; test = binding, MIDAS equilibrium dialysis LC-MS; test system = A2AR-BRIL thermostabilized; setting = concentration not given; how to read = reference: no-protein control; quantity = log2 fold change; value = -0.0826
SMILES = C[n+]1ccc(C=C2Sc3ccccc3N2CC(=O)NCCOCCOCCOCCNC(=O)CCCC[C@@H]2SC[C@@H]3NC(=O)N[C@@H]32)c2ccccc21; target or system = T4, aptamer DNA C14T; test = X-ray crystallography; quantity = binding; value = binds
SMILES = O=c1[nH]cnc2nc[nH]c12; target or system = T2, riboswitch RNA (Mesoplasma florum); test = NMR; quantity = binding; value = no binding
SMILES = NC[C@H]1O[C@H](O[C@H]2[C@H](O)[C@@H](O[C@H]3O[C@H](CO)[C@@H](O)[C@H](N)[C@H]3O)[C@H](N)C[C@@H]2N)[C@H](O)[C@@H](O)[C@@H]1O; target or system = T5, aptamer DNA aminoglycoside aptamer; test = chronoamperometry; setting = apparent, aptamer electrode; quantity = binding; value = binds
SMILES = C[S+](CC[C@H](N)C(=O)O)C[C@H]1O[C@@H](n2cnc3c(N)ncnc32)[C@H](O)[C@@H]1O (some centres unmarked); target or system = T6, riboswitch RNA SAM-I metF-H2 A87G/U88C (Thermoanaerobacter tengcongensis); test = X-ray crystallography; quantity = binding; value = binds
SMILES = CN[C@H](CC(C)C)C(=O)N[C@H]1C(=O)N[C@@H](CC(N)=O)C(=O)N[C@H]2C(=O)N[C@H]3C(=O)N[C@H](C(=O)N[C@H](C(=O)O)c4cc(O)cc(O)c4-c4cc3ccc4O)[C@H](O)c3ccc(c(Cl)c3)Oc3cc2cc(c3O[C@@H]2O[C@H](CO)[C@@H](O)[C@H](O)[C@H]2O[C@H]2C[C@](C)(N)[C@H](O)[C@H](C)O2)Oc2ccc(cc2Cl)[C@H]1O; target or system = T7, aptamer DNA vancomycin aptamer variant; test = competitor, fluorescence; setting = pH 7.4, MgCl2 10 mM; quantity = binding; value = binds
SMILES = Nc1nc2c(ncn2[C@H]2C[C@H](O)[C@@H](CO)O2)c(=O)[nH]1; target or system = T8, riboswitch RNA U39A (Bacillus); test = ITC; setting = KCl 50 mM; quantity = binding; value = no binding
SMILES = O=C(C#Cc1ccc(F)c(F)c1)c1ccccc1Cl; target or system = lasR; test = receptor binding; setting = concentration not given, 1.5 h, together with: OdDHL at 1:1 ratio; how to read = reference: control; quantity = binding; value = 65%
SMILES = C[C@@H](O)[C@H](N)C(=O)O; target or system = T1, lysine riboswitch RNA, 2-aminopurine at 17 (Bacillus subtilis); test = 2-aminopurine fluorescence titration; setting = pH 8.0, no fluorescence change; quantity = binding; value = no binding
SMILES = COc1cc(C#CC(=O)c2ccccc2OC)ccc1O; target or system = lasR; test = receptor binding; setting = concentration not given, 1.5 h, together with: OdDHL at 1:1 ratio; how to read = reference: control; quantity = binding; value = 77%
SMILES = N[C@@H](CCCCNC(=O)CC[C@H](N)C(=O)O)C(=O)O; target or system = T1, lysine riboswitch RNA, 2-aminopurine at 17 (Bacillus subtilis); test = 2-aminopurine fluorescence titration; setting = pH 8.0; quantity = binding; value = no binding
